Assay results gathered from unrelated publications.
Compare with care: the assays were run in different laboratories. Values joined by “and” are separate records of one study, mostly repeats; a detail may differ. Numbers after ± are the reported error.

Structure (SMILES)	test	system	conditions	scale	quantity	result
OC[C@H]1O[C@@H](O[C@H]2[C@H](O)[C@@H](O)[C@H](O)O[C@@H]2CO)[C@H](O)[C@@H](O)[C@@H]1O	binding, MIDAS equilibrium dialysis LC-MS	A2AR-BRIL thermostabilized	concentration not given	baseline: no-protein control	log2 fold change	-0.217
NCC(=O)Nc1cncc(-c2nn3c(=O)cc(N4CCNCC4)nc3s2)c1	ADP-induced platelet aggregation, light transmission aggregometry	human stable CAD patients on aspirin, platelets ex vivo	0.075 mg/kg, 90 min post dose, added: 20 µM ADP	baseline: placebo difference	inhibition of platelet aggregation	28.1%
CC(C)(COP(=O)(O)OP(=O)(O)OC[C@H]1O[C@@H](n2cnc3c(N)ncnc32)[C@H](O)[C@@H]1OP(=O)(O)O)[C@@H](O)C(=O)NCCC(=O)NCCS	binding, MIDAS equilibrium dialysis LC-MS	A2AR-BRIL thermostabilized	concentration not given	baseline: no-protein control	log2 fold change	-0.818
O=P(O)(O)C(Cl)(Cl)P(=O)(O)O	open field test	UT+/+ and UT-/- mice, sham	23000 µg/mL		distance travelled	35 m and 33 m and 28 m and 29 m
O=C(O)CNC(=O)Cc1ccccc1		ventricular cardiomyocytes, C57BL/6 mouse	dose not given, 0.34 s		sarcomere length	1.72 µm
N#Cc1ccn2c(-c3ccncc3)c(-c3ccc(F)cc3)nc2c1	kinase binding, competitor, MIB/MS competition, refers to: MCK1	Candida albicans cell lysate	100 nM	baseline: DMSO	log2 fold change	-0.0922
Nc1nc2c(c(=O)[nH]1)N=C(CNc1ccc(C(=O)N[C@@H](CCC(=O)O)C(=O)O)cc1)CN2	binding, MIDAS equilibrium dialysis LC-MS	A2AR-BRIL thermostabilized	concentration not given	baseline: no-protein control	log2 fold change	1.34
CCOC(=O)C1=CCCC[C@H]1S(=O)(=O)Nc1ccc(F)cc1Cl	flow cytometry	mouse, acute lung injury, lung	dose not given		TLR4 expression reduction	31%
O=C1O[C@H]([C@@H](O)CO)C(O)=C1O			1.0 mg/mL, 30 min, 25 °C		DPPH scavenging	96.1%
Cn1cc(Nc2nccc(-c3ccc4c(c3)CN(C3COC3)CC[C@H]4NC(=O)c3cn(C(C)(C)C)nn3)n2)cn1	refers to: D-myo-inositol (1,3,4)-trisphosphate Biosynthesis	splenic B cells, mouse	in vivo, 30 mg/kg, IgD-activated B cells	baseline: vehicle, positive = activation	pathway activation z-score	0
Cc1cc([C@H]2C[C@H]3[C@@H](C)SC(N)=N[C@@]3(c3ccc(F)cc3F)CO2)on1	refers to: Aβx-40	Mus musculus wild-type, cerebrospinal fluid	subcutaneous, 50 mg/kg, 3 h		Aβ40 level	0.2 ng/mL
CC(C)NCC(O)c1ccc(O)c(O)c1 (stereo not shown)		ventricular cardiomyocytes, C57BL/6 mouse	dose not given, 0.448 s		sarcomere length	1.7 µm
C=CCN(C)CCCCCCOc1ccc(C(=O)c2ccc(Br)cc2)c(F)c1	cell viability	Mut6 cells, mouse	added: exogenous cholesterol	baseline: without cholesterol	fold IC50 increase	479 fold
NC(=O)c1cnc2[nH]ccc2c1N[C@@H]1[C@@H]2CC3C[C@H]1C[C@@](O)(C3)C2	regulatory T cells, flow cytometry	Caucasian humans, peripheral blood	200 mg single dose	baseline: baseline	percent change	-0.13%
CC(C)c1c(C(=O)Nc2ccccc2)c(-c2ccccc2)c(-c2ccc(F)cc2)n1CC[C@@H](O)C[C@@H](O)CC(=O)O		cynomolgus monkey, female, serum	40 mg/kg or 25 mg/kg, day 86, 2064 h		HDL-C	38.4 mg/dL
CSCCNc1nc(SCCC(F)(F)F)nc2c1ncn2[C@@H]1O[C@H](COP(=O)(O)OP(=O)(O)C(Cl)(Cl)P(=O)(O)O)[C@@H](O)[C@H]1O	light transmittance aggregometry	human patients, platelet-rich plasma	dose not given, 30 min, added: ADP 5 µM		inhibition of platelet aggregation	44.2 ± 24.1%
O=C1CCc2ccc(OCCCCN3CCN(c4cccc(Cl)c4Cl)CC3)cc2N1	treatment discontinuation, Cox regression	human patients, CYP2D6 IM/PM/UM	dose not given, 3 months, genetic phenotype only	baseline: CYP2D6 normal metabolizers	hazard ratio	2.08
Cc1n[nH]c2ccc(-c3cc(OC[C@@H](N)Cc4ccccc4)cnc3-c3ccoc3)cc12	kinase binding, competitor, MIB/MS competition, refers to: HRR25	Candida albicans cell lysate	100 nM	baseline: DMSO	log2 fold change	-0.165
O=c1cc[nH]c(=O)[nH]1	binding, MIDAS equilibrium dialysis LC-MS	A2AR-BRIL thermostabilized	concentration not given	baseline: no-protein control	log2 fold change	0.0708
Cc1cc([C@H]2C[C@H]3[C@@H](CF)SC(N)=N[C@@]3(c3ccc(F)cc3F)CO2)on1	refers to: Aβx-40	Mus musculus wild-type, cerebrospinal fluid	subcutaneous, 100 mg/kg, 9 h		Aβ40 level	0.85 ng/mL
C[C@H]1C[C@H]2CSC(N)=N[C@@]2(c2nc(NC(=O)c3ccc(OC(F)F)cn3)cs2)CO1	refers to: Aβ1-40	healthy adults, plasma	50 mg once daily, day 2	baseline: placebo	percent change from baseline	-83.7%
COC(=O)c1sc(-c2cccs2)cc1NC(=O)/C=C/C(=O)O	ELISA	bone marrow-derived macrophages, C57BL/6J mice	dose not given, 48 h, added: LPS 24 h		IL-6 release	decreased
CC1(C)OCCn2c1nc1c(N3CCOCC3)nc(-c3cnc(N)nc3)nc12	RNA sequencing, refers to: HALLMARK_KRAS_SIGNALING_DN	MB002 tumour	concentration not given	baseline: vehicle, direction not given	GSEA enrichment score	0.151
OC(CCN1CCCCC1)(c1ccccc1)C1CC2C=CC1C2 (stereo not shown)	resting-state EEG	healthy elderly humans	oral, 2 mg, eyes closed, LS mean		EEG Beta1-power Pz-O1	4.6 µV²
CC(=O)Oc1cc2c(s1)CCN(C(C(=O)C1CC1)c1ccccc1F)C2 (stereo not shown)	platelet aggregation, light transmittance aggregometry	human, platelet-rich plasma	15 min, IPA above 90 %, added: TRAP 5 µM	baseline: patients	patients with IPA above threshold	0%

Structure (SMILES)	test	system	conditions	scale	quantity	result
N=C(N)NCCC[C@H](N)C(=O)O	binding, MIDAS equilibrium dialysis LC-MS	A2AR-BRIL thermostabilized	concentration not given	baseline: no-protein control	log2 fold change	0.0425
COc1cccc2c1C(=O)c1c(O)c3c(c(O)c1C2=O)C[C@@](O)(C(=O)CO)C[C@@H]3O[C@H]1C[C@H](N)[C@H](O)[C@H](C)O1	organoid viability, CellTiter-Glo 3D	sample C colorectal cancer organoid, human	6 days		IC50	189 nM
CN(CC(=O)O)C(=N)N	binding, MIDAS equilibrium dialysis LC-MS	A2AR-BRIL thermostabilized	concentration not given	baseline: no-protein control	log2 fold change	-0.159
N#Cc1ccc2c(c1)[C@H]1CCCN(C(=O)c3ccc4[nH]cnc4c3)[C@H]1C2		T2DM patients with overweight or obesity, plasma	oral, 80 mg, day 15 (360 h), multiple dosing, mean		fasting plasma glucose	136 mg/dL
O=Cc1cc(O)ccc1O	binding, MIDAS equilibrium dialysis LC-MS	A2AR-BRIL thermostabilized	concentration not given	baseline: no-protein control	log2 fold change	-0.0411
C[C@@H]1CCC[C@H](n2cnc(-c3cc(Cl)ccc3-n3cc(Cl)nn3)cc2=O)c2cc(ccn2)-c2c(cnn2C(F)F)NC1=O		dog plasma	IC1.5× aPTT, Actin FS reagent		concentration for aPTT prolongation	270 nM
c1ccc(-c2n[nH]cc2-c2ccnc3ccccc23)nc1	kinase binding, competitor, MIB/MS competition, refers to: RTK1	Candida albicans cell lysate	10 µM	baseline: DMSO	log2 fold change	1.26
C[C@H](CS)C(=O)N1CCC[C@H]1C(=O)O	LC-MS/MS, refers to: extracellular Met-enkephalin	mouse striatal brain slices	10 µM, 20 min, added: 50 mM KCl		Met-enkephalin concentration	3030 pM and 1930 pM and 3870 pM and 1520 pM and 1700 pM
CC1(C)CCC(CN2CCN(c3ccc(C(=O)NS(=O)(=O)c4ccc(NCC5CCOCC5)c([N+](=O)[O-])c4)c(Oc4cnc5[nH]ccc5c4)c3)CC2)=C(c2ccc(Cl)cc2)C1	cell killing, flow cytometry PI exclusion	canine blood CD21+ B cells, dog 32	24 h		EC50	125 nM
CC(c1cc2ccccc2s1)N(O)C(N)=O (stereo not shown)		human blood	3 µM, added: A23187		5-HETE level	2000 ± 1060 pg/mL
COc1cc(Nc2ncc3c(n2)-c2ccc(Cl)cc2C(c2c(F)cccc2OC)=NC3)ccc1C(=O)O		mouse, NB-1771 neuroblastoma xenograft	20.8 mg/kg	direction not given	median response score	10
N#Cc1ccc2c(c1)[C@H]1CCCN(C(=O)c3ccc4[nH]cnc4c3)[C@H]1C2	refers to: 1,5-anhydroglucitol	human	20 mg once daily, day 28, adjusted mean		change from baseline	-0.83 mg/L
CCCCCN1C[C@H](O)[C@@H](O)[C@H](O)[C@@H]1CO	RNA sequencing, refers to: 327 disease-specific DEGs	Hexb-/- mouse, hippocampus	30 mg/kg/day	direction not given	genomic disease score	0.44
C[C@H](Oc1ccc(Br)cc1-c1ccon1)C(=O)O	muscle velocity recovery cycles	human, tibialis anterior muscle	400 mg twice daily, multiple doses, frequency ramp, first response at 30 Hz	baseline: placebo	peak amplitude change	-5.52%
Cn1cc(Nc2nc(N)nc(-c3cccc(-n4ccc5cc(C6CC6)cc(F)c5c4=O)c3CO)n2)cn1	CD63 upregulation, anti-IgE-induced	human, multiple ascending dose, whole blood basophils ex vivo	300 mg twice daily, day 14, 6 h		inhibition	98%
C=CCn1c(=O)c2cnc(Nc3ccc(N4CCN(C)CC4)cc3)nc2n1-c1ccc2c(n1)[C@@](O)(CC)CC2		SK-OV-3 xenograft, NOD/SCID mice	oral, 80 mg/kg, day 17, once daily intermittent x 3 cycles		tumour growth inhibition	46.6%
C[C@@H](NC(=O)N1C(=O)[C@H](Cc2ccnc(N)c2)[C@H]1C(=O)O)C1CCCCC1		human	iv infusion, 1.0 mg/kg/h, 24 h	baseline: baseline	time to ACT Emax	96 h
N#C/C(=C\c1ccccc1)c1cnccn1			pH 7.4		β-elimination rate constant	0.096 min⁻¹
Cc1coc([C@H]2C[C@H]3[C@@H](CF)SC(N)=N[C@@]3(c3ccc(F)cc3F)CO2)n1	refers to: Aβx-40	Mus musculus wild-type, cerebrospinal fluid	subcutaneous, 80 mg/kg, 7 h		Aβ40 level	1.11 ng/mL
Oc1ccc(Br)cc1C=NCCN1CCOCC1	superoxide scavenging		120 µM		inhibition	20.4%
O=c1ccn([C@H]2C[C@H](O)[C@@H](COP(=O)(O)O)O2)c(=O)[nH]1	binding, MIDAS equilibrium dialysis LC-MS	A2AR-BRIL thermostabilized	concentration not given	baseline: no-protein control	log2 fold change	-0.0521
C[C@@H](O)CCOC(=O)C[C@@H](C)O	refers to: C10-OH/C8-DC acylcarnitine	human, plasma	60 min, log2-transformed values		metabolite level	-4.73 ± 0.81 µmol/L
Cn1cc([C@H]2C[C@H]3CSC(N)=N[C@@]3(c3ccc(F)cc3F)CO2)cn1	refers to: Aβx-40	Mus musculus wild-type, cerebrospinal fluid	subcutaneous, 3 mg/kg, 6 h		Aβ40 level	1.75 ng/mL
FC(F)(F)Oc1cccc(-c2cnc3ccc(-c4ccncc4)nn23)c1		MDA-MB-231 xenograft, NSG mouse	oral, 10 mg/kg daily, day 5	higher = larger tumour	tumour size	0.0688 a.u. and 0.036 a.u. and 0.108 a.u. and 0.032 a.u.

For quick reference, copied from above:
Structure (SMILES)	test	system	conditions	scale	quantity	result
NC(=O)c1cnc2[nH]ccc2c1N[C@@H]1[C@@H]2CC3C[C@H]1C[C@@](O)(C3)C2	regulatory T cells, flow cytometry	Caucasian humans, peripheral blood	200 mg single dose	baseline: baseline	percent change	-0.13%
CC(C)c1c(C(=O)Nc2ccccc2)c(-c2ccccc2)c(-c2ccc(F)cc2)n1CC[C@@H](O)C[C@@H](O)CC(=O)O		cynomolgus monkey, female, serum	40 mg/kg or 25 mg/kg, day 86, 2064 h		HDL-C	38.4 mg/dL
CSCCNc1nc(SCCC(F)(F)F)nc2c1ncn2[C@@H]1O[C@H](COP(=O)(O)OP(=O)(O)C(Cl)(Cl)P(=O)(O)O)[C@@H](O)[C@H]1O	light transmittance aggregometry	human patients, platelet-rich plasma	dose not given, 30 min, added: ADP 5 µM		inhibition of platelet aggregation	44.2 ± 24.1%
O=C1CCc2ccc(OCCCCN3CCN(c4cccc(Cl)c4Cl)CC3)cc2N1	treatment discontinuation, Cox regression	human patients, CYP2D6 IM/PM/UM	dose not given, 3 months, genetic phenotype only	baseline: CYP2D6 normal metabolizers	hazard ratio	2.08
Cc1n[nH]c2ccc(-c3cc(OC[C@@H](N)Cc4ccccc4)cnc3-c3ccoc3)cc12	kinase binding, competitor, MIB/MS competition, refers to: HRR25	Candida albicans cell lysate	100 nM	baseline: DMSO	log2 fold change	-0.165
O=c1cc[nH]c(=O)[nH]1	binding, MIDAS equilibrium dialysis LC-MS	A2AR-BRIL thermostabilized	concentration not given	baseline: no-protein control	log2 fold change	0.0708
Cc1cc([C@H]2C[C@H]3[C@@H](CF)SC(N)=N[C@@]3(c3ccc(F)cc3F)CO2)on1	refers to: Aβx-40	Mus musculus wild-type, cerebrospinal fluid	subcutaneous, 100 mg/kg, 9 h		Aβ40 level	0.85 ng/mL
